Measured values gathered from unrelated publications.
Parts stem from different laboratories: compare values within a part only.

Series 1 — technique: RNA Bind-n-Seq; form: RNA; medium: in vitro; tested at: not given; baseline: input RNA pool; direction: higher = stronger binding; measurement: bound/input enrichment
Target: RING finger protein unkempt homolog, zinc fingers 1-6, GST-SBP tag (UNK, Homo sapiens, UniProt Q9C0B0, residues 30-357)
Setting: RNA with constant flanks, human and mouse sites, ends assumed
Construct (chain): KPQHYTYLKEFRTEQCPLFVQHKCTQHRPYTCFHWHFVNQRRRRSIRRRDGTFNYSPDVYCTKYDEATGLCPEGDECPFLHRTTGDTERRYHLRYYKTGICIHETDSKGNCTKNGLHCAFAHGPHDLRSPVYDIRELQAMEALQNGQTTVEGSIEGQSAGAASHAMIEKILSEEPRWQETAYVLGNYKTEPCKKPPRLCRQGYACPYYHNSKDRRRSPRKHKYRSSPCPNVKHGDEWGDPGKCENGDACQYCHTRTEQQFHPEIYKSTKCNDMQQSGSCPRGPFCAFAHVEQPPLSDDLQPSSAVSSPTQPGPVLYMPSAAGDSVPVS
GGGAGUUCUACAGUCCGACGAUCCCAGGCCAAGACCAUGUUGACGUGAGCAUCCAGCUCCUCUUAAAAAGCGGCAGUGUCUUCCUCACCUCCCACCAGUAUCCCUUCUAUGACUGCCGUGAGGCCAUGAGCCUGGUGGAGAACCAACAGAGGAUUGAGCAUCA: 0.281 ratio
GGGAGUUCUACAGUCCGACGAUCUAUAAGAUCUGGAUUGUGGAGCCAAACCAAGGGGUUUGAAAGUAUAGAGGUUUGUAAAGUUCCAGCCCCGCAGCUGCACAGCACACCACCACUGCUGCUGUGCUCAGGUGUUUAUUGCAGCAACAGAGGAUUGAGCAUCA: 0.315 ratio
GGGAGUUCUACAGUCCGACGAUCACUGGUGUGGUCGUUGUUGGAAUACAGGGAGAGCCUGAGCGUGGACCCCGCUUUCCCAGAACUAGUAGUGAGGCUGUGCUCCGUGAAAAUGCACCACCAGGGACUCCAGUUAUCUCCCCACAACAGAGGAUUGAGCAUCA: 0.427 ratio
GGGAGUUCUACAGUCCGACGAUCACCUGGUCCCAUCACCUACAGCAAGCCAACAUCCAGUUCCGUACAGAUAUUGCCAGGACGGAAUACCUUUCCAAUGCUGAUGAGCGUCUUCGCUGGCAGGCCAGCUCCUUGCCUGCUGAUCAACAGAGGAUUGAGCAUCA: 0.317 ratio
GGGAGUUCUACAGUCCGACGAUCUAUCUGGACAAGGCACCCCCACCAGGCUUGCCAGCCGAAACGAUCAAGGAUCUGAUGCGCCAGUUUCUAAGAGGCCUAGAUUUCCUUCAUGCCAAUUGCAUCGUUCACCGAGAUCUGAAGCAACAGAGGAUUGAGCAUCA: 0.0826 ratio
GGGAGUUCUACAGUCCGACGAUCCGCGUCCUGCGCCGGACUCGGAUUGCCAAAAACCUGGAGUUAGAACAAGUGACUGUCCCAAUAGGUGUUUUACUGGUGAUCUUUGAGUCUCGCCCUGACUGUCUACCCCAGGUGGCAGCCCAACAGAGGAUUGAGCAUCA: 3.16 ratio
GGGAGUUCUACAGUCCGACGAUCAUAUAUAACAUGUCUUCUUUCAGAAUGGGAAUAUAUGUGUGCCUCCCAACAUUUACUGUUAAAGUGUGUUAUCUUUAUAUGUCAAACUGGUUGAACACUGUAAUGAGAAUAAACUGCACACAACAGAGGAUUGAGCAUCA: 0.165 ratio
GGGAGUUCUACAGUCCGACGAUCAUCACCCAGCUGAAUCUUAGCGGCUACAGAAAGAAUCUCCAGAAAUCAGAUCUCUCUACUUUAGUUAGAAGAUGCCCCAAUCUUGUCCAUCUAGACUUAAGUGAUAGUGUCAUGCUAAAGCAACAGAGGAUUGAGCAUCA: 1.75 ratio
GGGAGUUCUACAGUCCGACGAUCGAUGGAGUUUUAUAUGUAAAGCUCAGGGCAGGACAGCUCUCCUACAAAGAAGACCCAAUGGGGUGGCAGAGUUUGUUGGCACAAACUGUUGCUAAUAGGAACUCUGAAGCCCGGGCUUUCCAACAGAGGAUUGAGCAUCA: 0.114 ratio
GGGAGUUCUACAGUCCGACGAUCCUCAUGCCUUCCAGUCUGCAGACCCCUCAGACCCAGGAGCAGAAUGGGAUUCUAGACUGGCUUAGGAAACUGCGUUUGCACAAGUAUUACCCCGUCUUUAAGCAGCUCUCCAUGGAGAAGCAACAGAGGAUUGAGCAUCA: 0.166 ratio
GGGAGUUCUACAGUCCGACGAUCGCCCGGAAAACUGUGAAAAAAAUACUUAGUGACAUUGGGUUGGAAUACUGUAAAGAACAUAUAGAAGAUUUUAAACAAUUUGAACCUAAUGACUUUUAUUUGAAAAACACUACAUGGGAGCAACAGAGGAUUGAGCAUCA: 1.16 ratio

Series 2 — technique: protein-binding microarray; form: double-stranded DNA, one strand shown; medium: in vitro; tested at: not given; direction: higher = stronger binding; measurement: E-score
Target: Protein C-ets-1 (ETS1, Homo sapiens, UniProt P14921, residues 1-441, K379A, full length assumed)
Setting: k-mer, scored over probes, only values ≥0.25
Construct (chain): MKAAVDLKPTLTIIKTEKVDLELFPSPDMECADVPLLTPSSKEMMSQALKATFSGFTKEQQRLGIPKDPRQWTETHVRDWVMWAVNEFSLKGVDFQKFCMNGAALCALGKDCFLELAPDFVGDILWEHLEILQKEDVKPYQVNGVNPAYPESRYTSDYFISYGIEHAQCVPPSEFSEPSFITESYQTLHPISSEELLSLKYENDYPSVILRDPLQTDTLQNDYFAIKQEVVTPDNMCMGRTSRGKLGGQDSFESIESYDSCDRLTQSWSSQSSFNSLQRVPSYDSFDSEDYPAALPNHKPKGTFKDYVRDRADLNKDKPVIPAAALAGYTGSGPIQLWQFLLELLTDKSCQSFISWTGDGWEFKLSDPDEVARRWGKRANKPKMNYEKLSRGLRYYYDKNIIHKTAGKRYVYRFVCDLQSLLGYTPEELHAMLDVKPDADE
ACCCGCCC: 0.387
ACCCTCCC: 0.251
CAAACCGG: 0.384
GGTGGGGA: 0.347
GACCGGGA: 0.456
CGTTGATA: 0.268
ATACCACC: 0.295
CCCGGGAA: 0.29
CCGGGGAG: 0.269
CGGTAATC: 0.325
CATGCCCG: 0.259
CGGTACCG: 0.483

Series 3 — technique: aptamer microarray, sandwich; form: DNA with 2'F-ANA; medium: in vitro; tested at: 200 nM; together with: Cy3 exosite-II aptamer, 400 nM; direction: higher = stronger binding; measurement: mean fluorescence intensity; sequence: GGTTGGTGTGGTTGG
Target: Prothrombin, mature alpha-thrombin (F2, Homo sapiens, UniProt P00734)
Setting: whole 15-mer aptamer, many near background
2'F-ANA at 1 3 4 5 6 11 13 14: 46.3 a.u.
2'F-ANA at 3 5 9 10 11 12 13: 62.1 a.u.
2'F-ANA at 3 6 7 8 15: 1050 a.u.
2'F-ANA at 4 5 6 8 9 13 14: 48.3 a.u.
2'F-ANA at 3 6 7 8 9 11 12 13 14 15: 452 a.u.
2'F-ANA at 2 9 11 12 14 15: 159 a.u.
2'F-ANA at 3 8 10 11 12 13 14: 409 a.u.
2'F-ANA at 3 5 8 9 11 12 13: 192 a.u.
2'F-ANA at 1 4 5 6 9 10 11: 46.7 a.u.
2'F-ANA at 3 5 6 7 8 9 10 11 12 15: 61.7 a.u.
2'F-ANA at 1 2 4 5 6 7 8 10 14 15: 62.6 a.u.
2'F-ANA at 1 2 3 4 7 8 9 10 11 12 13 14 15: 57.6 a.u.
2'F-ANA at 5 8 9 10: 92.2 a.u.
2'F-ANA at 1 2 4 11 12 14: 50.9 a.u.
2'F-ANA at 2 3 4 11 12 13 15: 584 a.u.
2'F-ANA at 1 2 5 8 9 11 12 15: 103 a.u.
2'F-ANA at 2 4 5 6 7 9 12 13: 84.7 a.u.
2'F-ANA at 3 6 9 10 12 14 15: 359 a.u.
2'F-ANA at 3 4 5 7 8 9 11 13: 73.1 a.u.
2'F-ANA at 2 4 5 7 8 9 10 13 14: 46.5 a.u.
2'F-ANA at 4 8 11 12 13 14: 115 a.u.
2'F-ANA at 1 2 5 7 8 10 13 15: 131 a.u.
2'F-ANA at 1 2 4 10 11 14: 44.6 a.u.
2'F-ANA at 1 5 7 8 9 12 14: 45.4 a.u.
2'F-ANA at 1 3 4 5 6 7 9 11 13 15: 80.5 a.u.

Series 4 — target: UBE2D1 UBC core domain (UniProt P51668); technique: yeast two-hybrid; medium: yeast; setting: mostly zero background; baseline: not given; direction: higher = stronger interaction; measurement: lacZ reporter activity
Chain of UniProt P51668 (whole entry, looked up): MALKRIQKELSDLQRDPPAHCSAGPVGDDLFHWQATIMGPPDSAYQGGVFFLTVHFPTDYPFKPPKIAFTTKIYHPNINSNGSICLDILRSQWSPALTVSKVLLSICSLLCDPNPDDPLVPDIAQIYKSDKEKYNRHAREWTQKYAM
B1: NHLRC1 RING domain (UniProt Q6VVB1); chain MREAEISLLECKVCFEKFGHRQQRRPRNLSCGHVVCLACVAALAHPRTLALECPFCRRACRGCDTSD
B2: TRIM32 RING domain (UniProt Q13049); chain NLDALREVLECPICMESFTEEQLRPKLLHCGHTICRQCLEKLLASSINGVRCPFCSKITRITSLTQ
B3: TRIM74 RING domain (UniProt Q86UV6); chain SLLELEDWLQCPICLEVFKESLMLQCGHSYCKGCLVSLSYHLDTKVRCPMCWQVVDGSSSLP
B4: UBE4B RING domain (UniProt O95155); chain KNARAEIDYSDAPDEFRDPLMDTLMTDPVRLPSGTIMDRSIILRHLLNSPTDPFNRQTLTESMLEPVPELKEQIQAWMREKQNSDH
B5: PJA2 RING domain (UniProt O43164); chain DHTAIGQEQCCPICCSEYIKDDIATELPCHHFFHKPCVSIWLQKSGTCPVCRRHFPPAVIEA
B6: TRIM34 RING domain (UniProt Q9BYJ4); chain ILLNVQEEVTCPICLELLTEPLSLDCGHSLCRACITVSNKEAVTSMGGKSSCPVCGISYSFEHLQA
B7: TRIM28 RING domain (UniProt Q13263); chain GAEALELLEHCGVCRERLRPEREPRLLPCLHSACSACLGPAAPAAANSSGDGGAAGDGTVVDCPVCKQQCFSKDIVE
B1 (NHLRC1 RING domain): 0
B2 (TRIM32 RING domain): 0
B3 (TRIM74 RING domain): 0
GSEEEEIPFRCFICRQAFQNPVVTKCRHYFCESCALEHFRATPRCYICDQPTGGIFNPA (RNF113B RING domain (UniProt Q8IZP6)): 0
B4 (UBE4B RING domain): 0
B5 (PJA2 RING domain): 2040
B6 (TRIM34 RING domain): 0
B7 (TRIM28 RING domain): 0
